# Experimental data gathered from unrelated publications.
# Every numbered part comes from another study and shows a few of its results, in no order. Several values in a cell are separate wells, animals, samples, runs or records.
# Chain of UniProt Q9UKT9 (whole entry, looked up): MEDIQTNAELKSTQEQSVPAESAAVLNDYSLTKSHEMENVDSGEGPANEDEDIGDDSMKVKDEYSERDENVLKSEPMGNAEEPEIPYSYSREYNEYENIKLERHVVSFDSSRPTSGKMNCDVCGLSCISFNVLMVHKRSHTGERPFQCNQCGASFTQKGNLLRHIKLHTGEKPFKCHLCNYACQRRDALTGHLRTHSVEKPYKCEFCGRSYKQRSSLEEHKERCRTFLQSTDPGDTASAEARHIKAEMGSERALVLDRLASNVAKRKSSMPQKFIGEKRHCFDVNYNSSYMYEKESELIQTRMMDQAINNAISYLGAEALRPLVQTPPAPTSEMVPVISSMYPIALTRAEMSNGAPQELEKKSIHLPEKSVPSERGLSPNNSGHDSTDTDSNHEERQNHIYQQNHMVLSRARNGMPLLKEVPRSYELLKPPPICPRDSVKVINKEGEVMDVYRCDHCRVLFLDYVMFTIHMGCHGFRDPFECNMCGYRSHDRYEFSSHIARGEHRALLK
# Chain of UniProt Q15835 (whole entry, looked up): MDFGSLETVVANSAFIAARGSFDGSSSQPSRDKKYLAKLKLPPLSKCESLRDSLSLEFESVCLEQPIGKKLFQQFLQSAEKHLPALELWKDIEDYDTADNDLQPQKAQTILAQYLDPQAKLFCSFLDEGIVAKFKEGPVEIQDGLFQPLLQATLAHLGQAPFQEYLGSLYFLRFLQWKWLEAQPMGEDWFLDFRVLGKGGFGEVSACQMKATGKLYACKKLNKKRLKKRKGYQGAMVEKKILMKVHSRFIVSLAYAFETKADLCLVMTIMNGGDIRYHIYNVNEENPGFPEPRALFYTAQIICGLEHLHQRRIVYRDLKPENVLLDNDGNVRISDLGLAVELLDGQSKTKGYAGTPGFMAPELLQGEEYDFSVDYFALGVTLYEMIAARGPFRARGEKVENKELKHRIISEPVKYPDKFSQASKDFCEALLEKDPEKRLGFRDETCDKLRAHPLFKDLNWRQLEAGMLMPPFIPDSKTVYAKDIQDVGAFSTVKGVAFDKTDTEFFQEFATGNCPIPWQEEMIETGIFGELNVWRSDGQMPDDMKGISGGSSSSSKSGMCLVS
# Chain of UniProt Q96SB4 (whole entry, looked up): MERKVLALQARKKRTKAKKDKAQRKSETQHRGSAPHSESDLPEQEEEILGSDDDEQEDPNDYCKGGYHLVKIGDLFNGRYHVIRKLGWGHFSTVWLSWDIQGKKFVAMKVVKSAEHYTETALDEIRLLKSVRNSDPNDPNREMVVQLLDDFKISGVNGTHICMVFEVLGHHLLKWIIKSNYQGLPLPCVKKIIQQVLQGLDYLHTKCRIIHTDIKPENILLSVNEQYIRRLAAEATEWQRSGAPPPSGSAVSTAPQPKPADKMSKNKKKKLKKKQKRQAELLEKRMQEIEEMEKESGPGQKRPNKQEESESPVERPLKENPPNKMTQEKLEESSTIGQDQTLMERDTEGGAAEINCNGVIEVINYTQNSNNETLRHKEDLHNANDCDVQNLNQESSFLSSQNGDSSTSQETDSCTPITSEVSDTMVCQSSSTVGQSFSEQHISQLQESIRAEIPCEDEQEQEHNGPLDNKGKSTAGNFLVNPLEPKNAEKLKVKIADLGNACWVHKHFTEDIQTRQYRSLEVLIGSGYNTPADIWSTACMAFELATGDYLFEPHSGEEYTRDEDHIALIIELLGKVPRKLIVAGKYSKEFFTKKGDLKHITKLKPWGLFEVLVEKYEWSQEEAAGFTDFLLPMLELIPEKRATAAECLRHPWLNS
# Chain of UniProt P35346 (whole entry, looked up): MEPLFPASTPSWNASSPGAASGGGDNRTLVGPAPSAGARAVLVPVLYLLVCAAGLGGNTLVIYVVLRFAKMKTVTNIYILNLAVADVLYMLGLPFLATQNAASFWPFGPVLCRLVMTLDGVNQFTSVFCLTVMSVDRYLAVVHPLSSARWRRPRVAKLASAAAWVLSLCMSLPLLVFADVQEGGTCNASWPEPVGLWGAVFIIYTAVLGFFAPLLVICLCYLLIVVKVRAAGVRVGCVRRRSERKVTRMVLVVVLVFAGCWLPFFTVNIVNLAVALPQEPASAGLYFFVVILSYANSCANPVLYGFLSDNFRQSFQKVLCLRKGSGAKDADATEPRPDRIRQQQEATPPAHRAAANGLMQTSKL
# Chain of UniProt Q9H093 (whole entry, looked up): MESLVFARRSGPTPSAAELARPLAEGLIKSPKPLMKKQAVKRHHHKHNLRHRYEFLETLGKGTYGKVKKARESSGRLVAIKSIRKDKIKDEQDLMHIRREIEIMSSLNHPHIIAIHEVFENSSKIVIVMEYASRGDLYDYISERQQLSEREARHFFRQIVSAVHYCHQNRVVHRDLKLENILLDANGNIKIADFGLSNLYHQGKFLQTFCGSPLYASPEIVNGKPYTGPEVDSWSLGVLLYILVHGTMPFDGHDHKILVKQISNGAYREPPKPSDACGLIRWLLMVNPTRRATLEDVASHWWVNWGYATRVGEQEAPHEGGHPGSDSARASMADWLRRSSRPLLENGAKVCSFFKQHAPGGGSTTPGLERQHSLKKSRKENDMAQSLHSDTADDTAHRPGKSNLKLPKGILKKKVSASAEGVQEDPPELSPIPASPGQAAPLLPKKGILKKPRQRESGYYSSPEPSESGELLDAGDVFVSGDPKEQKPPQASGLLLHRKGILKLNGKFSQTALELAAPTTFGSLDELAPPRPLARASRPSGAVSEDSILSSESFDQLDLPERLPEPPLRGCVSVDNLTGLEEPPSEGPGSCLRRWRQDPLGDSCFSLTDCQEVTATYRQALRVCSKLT
# Chain of UniProt Q9UBF8 (whole entry, looked up): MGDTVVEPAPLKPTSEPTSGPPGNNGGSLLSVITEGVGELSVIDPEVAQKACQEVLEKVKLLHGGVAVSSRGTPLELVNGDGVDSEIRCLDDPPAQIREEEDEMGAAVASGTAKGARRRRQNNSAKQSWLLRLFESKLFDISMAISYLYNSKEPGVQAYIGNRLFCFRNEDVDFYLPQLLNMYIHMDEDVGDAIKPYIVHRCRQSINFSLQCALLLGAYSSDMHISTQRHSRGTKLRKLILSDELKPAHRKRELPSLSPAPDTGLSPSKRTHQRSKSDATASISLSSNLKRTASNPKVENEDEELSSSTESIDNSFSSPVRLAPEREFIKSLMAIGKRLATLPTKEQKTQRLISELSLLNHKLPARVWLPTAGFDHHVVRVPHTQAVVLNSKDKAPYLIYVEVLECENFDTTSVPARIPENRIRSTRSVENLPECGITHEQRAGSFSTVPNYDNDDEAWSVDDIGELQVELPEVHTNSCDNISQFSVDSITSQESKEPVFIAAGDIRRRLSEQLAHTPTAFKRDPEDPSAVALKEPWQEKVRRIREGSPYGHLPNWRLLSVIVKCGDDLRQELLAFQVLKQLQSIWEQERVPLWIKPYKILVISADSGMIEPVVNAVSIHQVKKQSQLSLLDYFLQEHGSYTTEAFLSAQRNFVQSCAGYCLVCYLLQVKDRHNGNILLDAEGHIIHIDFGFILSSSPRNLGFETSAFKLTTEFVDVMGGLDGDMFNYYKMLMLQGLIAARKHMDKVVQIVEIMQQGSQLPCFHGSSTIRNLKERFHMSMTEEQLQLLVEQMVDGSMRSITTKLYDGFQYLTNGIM
# Chain of UniProt Q9HC98 (whole entry, looked up): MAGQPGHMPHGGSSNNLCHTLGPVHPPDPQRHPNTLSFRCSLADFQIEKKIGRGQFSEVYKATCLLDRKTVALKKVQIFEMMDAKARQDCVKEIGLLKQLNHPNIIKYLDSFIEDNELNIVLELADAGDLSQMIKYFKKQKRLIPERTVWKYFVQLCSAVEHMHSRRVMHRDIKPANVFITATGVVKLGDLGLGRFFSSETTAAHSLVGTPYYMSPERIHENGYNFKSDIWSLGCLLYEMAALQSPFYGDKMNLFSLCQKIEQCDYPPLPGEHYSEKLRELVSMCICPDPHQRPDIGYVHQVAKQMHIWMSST

# Study 1
# SMILES: O=C1CCC(N2Cc3cc(C4CCN(Cc5ccccc5)CC4)ccc3C2=O)C(=O)N1 (centres unmarked)
# Action: degrader
target,assay,test system,conditions,remaining protein
"CRBN/Zinc finger protein Helios (Homo sapiens, UniProt Q96SW2+Q9UKS7)",flow cytometry,primary human regulatory T cells,"0.0004572 µM, 6 h",110%
"Zinc finger protein Aiolos (Homo sapiens, UniProt Q9UKT9)",HiBiT,HEK293,0.04115 µM,87.9% and 94.5%
"DNA-binding protein Ikaros (Homo sapiens, UniProt Q13422)",HiBiT,HEK293,"0.1235 µM, 6 h",97.1%
"Zinc finger protein Eos (IKZF4, Homo sapiens, UniProt Q9H2S9)",HiBiT,HEK293,"0.0001524 µM, 6 h",110%

# Study 2
# Species: mouse
# Matrix: microsomes or S9
# Tested at: 2 µM
# Time: 0.5 h
Compound,remaining compound
Cc1nc2c(s1)CN(C(=O)CNS(=O)(=O)c1ccc(Oc3ccccc3)cc1)CC2,2.75%
COc1cc(C2CC(=O)c3cc4c(O)n[nH]c4nc3C2)cc(OC)c1OC (centres unmarked),77%
CCOC(=O)c1cc(C(C)C)sc1NC(=O)c1cc(Cl)ccc1OC,32%
CN(C)c1nc2sc(C(=O)NCc3cc4ccccc4[nH]3)cc2s1,3.72%
COCCOc1cc(=O)n2c(c1C(=O)NC1CCCCC1)CCOCC2,66.7%
COC(=O)C1(C(=O)OC)C[C@@H](c2ccccc2)c2ccc(N(C)C)cc2[C@@H]1CC(=O)c1ccccc1,1.46%

# Study 3
# Target: Diamine acetyltransferase 1 (Homo sapiens, UniProt P21673)
# Action: inhibitor
# Tested at: 10 µM
# Relative to: control
# Construct (P21673 1-171): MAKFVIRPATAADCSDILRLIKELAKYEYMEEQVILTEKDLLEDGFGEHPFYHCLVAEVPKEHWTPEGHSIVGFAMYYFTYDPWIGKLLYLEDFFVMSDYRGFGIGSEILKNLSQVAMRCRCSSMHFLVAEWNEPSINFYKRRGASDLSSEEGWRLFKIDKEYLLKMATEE
Structure (SMILES),remaining activity [%]
C[C@@H]1O[C@@H](OC[C@H]2O[C@@H](Oc3c(-c4ccc(O)cc4)oc4cc(O)cc(O)c4c3=O)[C@H](O)[C@@H](O)[C@@H]2O)[C@H](O)[C@H](O)[C@H]1O,110
CCCCC/C=C/C(=O)CCc1ccc(O)c(OC)c1,112
COc1ccc(C[C@H]2COC(=O)[C@@H]2Cc2ccc(O[C@@H]3O[C@H](CO)[C@@H](O)[C@H](O)[C@H]3O)c(OC)c2)cc1OC,96.2

# Study 4
# SMILES: O=c1nc(-c2ccccn2)sc2ccccc12
# Technique: competition with immobilised ligand
# Tested at: 1 µM
target,assay,remaining binding [%]
"PI4KB (Homo sapiens, UniProt Q9UBF8)",cell-free assay,71
"NEK6 (Homo sapiens, UniProt Q9HC98)",binding,100
"CDC42BPA (Homo sapiens, UniProt Q5VT25)",cell-free assay,91
"BRAF (Homo sapiens, UniProt P15056, V600E)",cell-free assay,100
"SBK3 (Homo sapiens, UniProt P0C264)",binding,100
"TEK (Homo sapiens, UniProt Q02763)",cell-free assay,99
"SRPK1 (Homo sapiens, UniProt Q96SB4)",binding,83
"ITK (Homo sapiens, UniProt Q08881)",binding,82
"PAK5 (Homo sapiens, UniProt Q9P286)",cell-free assay,87
"GRK1 (Homo sapiens, UniProt Q15835)",binding,76
"PIK3CA (Homo sapiens, UniProt P42336, H1047L)",cell-free assay,76
"PRKACB (Homo sapiens, UniProt P22694)",cell-free assay,92
"Mast/stem cell growth factor receptor Kit, autoinhibited (KIT, Homo sapiens, UniProt P10721)",binding,97
"HUNK (Homo sapiens, UniProt P57058)",binding,81
"PIKFYVE (Homo sapiens, UniProt Q9Y2I7)",binding,100
"HIPK1 (Homo sapiens, UniProt Q86Z02)",binding,61
"ALK (Homo sapiens, UniProt Q9UM73)",cell-free assay,84
"OXSR1 (Homo sapiens, UniProt O95747)",binding,100
"PRKACA (Homo sapiens, UniProt P17612)",cell-free assay,91
"CDK11B (Homo sapiens, UniProt P21127)",cell-free assay,100
"NUAK2 (Homo sapiens, UniProt Q9H093)",binding,100
"IRAK3 (Homo sapiens, UniProt Q9Y616)",binding,82
"LATS1 (Homo sapiens, UniProt O95835)",binding,95
"NEK1 (Homo sapiens, UniProt Q96PY6)",binding,100
"Receptor-type tyrosine-protein kinase FLT3, autoinhibited (FLT3, Homo sapiens, UniProt P36888)",binding,98

# Study 5
# SMILES: CC(C)n1cnc(-c2ccc(F)cc2)c1-c1ncc(C(=O)Nc2ccc(N3CCN(C)CC3)cc2)[nH]1
# Species: idiopathic pulmonary fibrosis patients
assay,conditions,patients with hypothyroidism [%]
,"dose not given, all compound arms, grade 5",0
phase 2a trial,"all arms pooled, grade 3 emergent event",0
phase 2a trial,"60 mg once daily, grade 1 emergent event",0
phase 2a trial,"all arms pooled, grade 4 emergent event",0

# Study 6
# Structure (SMILES): NC(N)=NC(=O)c1nc(Cl)c(N2CCCCCC2)nc1N
# Read-out: β-arrestin recruitment
# Action: agonist
# Technique: PRESTO-Tango
# Tested at: 10 µM
# Relative to: untreated
target,fold over basal
"GPR4 (Homo sapiens, UniProt P46093)",1.36
"SSTR5 (Homo sapiens, UniProt P35346)",0.75 fold
"HTR2C (Homo sapiens, UniProt P28335)",0.46

# Study 7
# Cell line: mouse MPNST tumor cells
# Technique: high-content immunofluorescence imaging
# Measured: nuclear SOX9
# Tested at: 10 µM
# Time: 12 h
# Setting: mean of 2 replicates
# Relative to: DMSO control
# Reading: higher = more nuclear SOX9
Structure (SMILES),nuclear SOX9 intensity
Nc1nc(NCCc2ccc(O)cc2)nc2nc(-c3ccco3)nn12,98.6 % of DMSO
COc1ccccc1Oc1c(NS(=O)(=O)c2ccc(C(C)(C)C)cc2)nc(-c2ncccn2)nc1OCCO,90.2 % of DMSO and 101 % of DMSO and 113 % of DMSO
COc1cc2ncnc(Nc3ccc(Oc4ccccc4)cc3)c2cc1OC,156 % of DMSO
CCCC(CCC)C(=O)NCc1ccc2c(cnn2-c2ccccc2OC)c1,100 % of DMSO
Cn1c(=O)c2c(ncn2CC2OCCO2)n(C)c1=O,95.1 % of DMSO

# Excerpt of the above (study 3):
Structure (SMILES),remaining activity [%]
COc1ccc(C[C@H]2COC(=O)[C@@H]2Cc2ccc(O[C@@H]3O[C@H](CO)[C@@H](O)[C@H](O)[C@H]3O)c(OC)c2)cc1OC,96.2
CCCCC/C=C/C(=O)CCc1ccc(O)c(OC)c1,112
C[C@@H]1O[C@@H](OC[C@H]2O[C@@H](Oc3c(-c4ccc(O)cc4)oc4cc(O)cc(O)c4c3=O)[C@H](O)[C@@H](O)[C@@H]2O)[C@H](O)[C@H](O)[C@H]1O,110
